{"data": "Published values gathered from unrelated publications", "note": "Parts stem from different laboratories: compare values within a part only. Changes are numbered by the printed parent chain."}
{"data": "Set 1", "target": "CEP164, C-terminal peptide (human)", "technique": "DHFR complementation, deep sequencing", "sample": "yeast", "setting": "single substitutions, model-inferred values", "relative to": "wild type", "direction": "higher = weaker binding", "starting sequence": "PDZK1, PDZ domain 2 (human); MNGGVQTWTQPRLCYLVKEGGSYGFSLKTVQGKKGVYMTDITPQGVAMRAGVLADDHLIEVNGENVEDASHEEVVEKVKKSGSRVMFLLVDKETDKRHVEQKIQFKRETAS; partner HNRVKVYRF"}
{"Change": "G45C", "binding free energy change": "1.35 kcal/mol"}
{"Change": "I59P", "binding free energy change": "0.674 kcal/mol"}
{"Change": "Q44T", "binding free energy change": "0.0399 kcal/mol"}
{"Change": "N65W", "binding free energy change": "0.0358 kcal/mol"}
{"Change": "Q104K", "binding free energy change": "-0.17 kcal/mol"}
{"Change": "S111M", "binding free energy change": "0.413 kcal/mol"}
{"Change": "A69N", "binding free energy change": "-0.163 kcal/mol"}
{"Change": "S83M", "binding free energy change": "-0.00672 kcal/mol"}
{"data": "Set 2", "target": "Histone acetyltransferase KAT6A, winged helix 1, GST fusion (KAT6A, Homo sapiens, UniProt Q92794, residues 1-85)", "technique": "protein binding microarray", "molecule type": "double-stranded DNA, one strand shown", "sample": "in vitro", "concentration": "not given", "setting": "8-mer, flanks averaged, mean of 2 arrays, mostly near background", "relative to": "not given", "direction": "higher = stronger binding", "Residues (chain)": "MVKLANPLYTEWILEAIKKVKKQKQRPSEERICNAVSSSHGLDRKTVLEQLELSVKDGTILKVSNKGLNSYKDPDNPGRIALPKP"}
{"Strand": "ACACCGGT", "E-score": 0.152}
{"Strand": "CCTCGGAA", "E-score": 0.0284}
{"Strand": "GAGGTTCA", "E-score": -0.0775}
{"Strand": "TTAGCCAA", "E-score": -0.111}
{"Strand": "GGCCTCCA", "E-score": -0.0299}
{"Strand": "CTTCCAAC", "E-score": -0.0826}
{"Strand": "ATAAAGCA", "E-score": -0.188}
{"Strand": "CCTTACCG", "E-score": 0.095}
{"data": "Set 3", "target": "TAR DNA-binding protein 43, full length, His tag (TARDBP, Homo sapiens, UniProt Q13148, residues 1-414)", "technique": "RNA Bind-n-Seq", "molecule type": "RNA", "sample": "in vitro", "concentration": "20 nM", "setting": "6-mer, flanks averaged, single round", "added": "150 mM LiCl", "relative to": "input library", "direction": "higher = stronger binding"}
{"Strand": "CGGAAC", "6-mer enrichment (R)": 0.874}
{"Strand": "CAGCUA", "6-mer enrichment (R)": 0.854}
{"Strand": "GUUGUA", "6-mer enrichment (R)": 1.19}
{"Strand": "CCAUCG", "6-mer enrichment (R)": 0.858}
{"Strand": "ACAUCG", "6-mer enrichment (R)": 0.798}
{"Strand": "UAGCUU", "6-mer enrichment (R)": 0.912}
{"Strand": "AAAGGA", "6-mer enrichment (R)": 0.85}
{"Strand": "GGAGCC", "6-mer enrichment (R)": 1.02}
{"data": "Single results of other studies"}
{"Structure (SMILES)": "CC(C)n1cnc(-c2ccc(F)cc2)c1-c1ncc(C(=O)Nc2ccc(N3CCN(C)CC3)cc2)[nH]1", "technique": "phase 2a trial", "host": "idiopathic pulmonary fibrosis patients", "dose": "30 mg once daily", "setting": "grade 3 emergent event", "measurement": "patients with eczema", "result": "0%"}
{"note": "Some of these lines once more (set 3):"}
{"Strand": "CCAUCG", "6-mer enrichment (R)": 0.858}
{"Strand": "ACAUCG", "6-mer enrichment (R)": 0.798}
{"Strand": "CGGAAC", "6-mer enrichment (R)": 0.874}
